Measurements gathered from unrelated publications.
Every numbered part comes from another study and shows a few of its results, in no order.

Study 1
Target: Sal-like protein 4, full length isoform B (SALL4, Homo sapiens, UniProt Q9UJQ4-2, residues 1-616)
Technique: universal PBM
Molecule type: double-stranded DNA, one strand shown
Matrix: in vitro
Concentration: not given
Notes: 8-mer, flanks averaged, mean of replicates
Direction: higher = stronger binding
Quantity: E-score
Target sequence (chain): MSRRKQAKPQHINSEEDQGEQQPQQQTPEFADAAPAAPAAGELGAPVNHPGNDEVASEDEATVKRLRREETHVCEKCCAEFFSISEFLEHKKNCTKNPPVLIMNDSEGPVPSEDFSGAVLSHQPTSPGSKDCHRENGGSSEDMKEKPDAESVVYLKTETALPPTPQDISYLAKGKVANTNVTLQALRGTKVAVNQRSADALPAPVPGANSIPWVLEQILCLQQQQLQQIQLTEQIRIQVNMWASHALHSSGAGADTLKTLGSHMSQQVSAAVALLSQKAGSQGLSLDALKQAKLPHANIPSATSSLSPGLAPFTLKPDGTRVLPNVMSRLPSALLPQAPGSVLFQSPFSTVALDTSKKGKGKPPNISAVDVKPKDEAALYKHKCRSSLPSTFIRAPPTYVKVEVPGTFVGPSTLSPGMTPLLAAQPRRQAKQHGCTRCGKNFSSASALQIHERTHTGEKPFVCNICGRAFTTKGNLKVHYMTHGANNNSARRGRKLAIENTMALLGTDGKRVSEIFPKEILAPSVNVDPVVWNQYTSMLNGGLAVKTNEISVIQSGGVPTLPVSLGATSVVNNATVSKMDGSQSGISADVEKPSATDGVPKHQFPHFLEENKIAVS
Sequence = GAGCGCGA; value = -0.173
Sequence = CTGATCCA; value = 0.0307
Sequence = CAATATCA; value = 0.342
Sequence = CAGAATAC; value = 0.0938
Sequence = TCGCGACA; value = -0.0491
Sequence = ACGCAATC; value = -0.0221
Sequence = CCTATGGC; value = -0.0752
Sequence = CACAGTAG; value = 0.0504
Sequence = AAGGTTCC; value = 0.0985
Sequence = CAATTTTC; value = 0.193
Sequence = GATGTAGA; value = 0.0516
Sequence = CCTGACAA; value = -0.0959
Sequence = CCAGCACA; value = -0.0284
Sequence = GAATGACC; value = -0.117
Sequence = GTTTTCGA; value = -0.00638
Sequence = GCTGCACA; value = -0.251
Sequence = GCCCGCAC; value = -0.265
Sequence = CAATTCTC; value = 0.0741
Sequence = ATCGCAAT; value = 0.055

Study 2
Target: RNA binding protein fox-1 homolog 2, RRM domain, GST-SBP tag (RBFOX2, Homo sapiens, UniProt O43251-10, residues 100-194)
Technique: RNA Bind-n-Seq
Molecule type: RNA
Matrix: in vitro
Concentration: 365 nM
Notes: natural RNA segment, single round, ends assumed
Baseline: no-protein control
Direction: higher = stronger binding
Quantity: RBNS enrichment (R)
Target sequence (chain): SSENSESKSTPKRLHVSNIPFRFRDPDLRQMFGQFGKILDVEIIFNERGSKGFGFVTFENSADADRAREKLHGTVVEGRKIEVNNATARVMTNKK
Sequence = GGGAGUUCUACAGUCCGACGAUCGGGGCCGCCGCGCAAGGGGGCGACGCAUAAAGGCCUGCUGGCUUGGGGCGCCUGCCUCCCUGCUCCUCUGUCCUCGCACAGCGAACCUGGGCUCCUGCCCAGGACAGGCAUGGAAUUCUCGGGUGCCAA; value = 0.412
Sequence = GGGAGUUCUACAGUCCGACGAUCAAUUGAGGCCUCCAUGUGGGAAGUGUGAUUUCUGCUUUUGUGUCCCAUCCCCACCCCACCCCAUUACCACAGCUGCCUUUGUGUCUGUGUCAAUAAAAAGCCAAACCCUGUGGAAUUCUCGGGUGCCAA; value = 0.6
Sequence = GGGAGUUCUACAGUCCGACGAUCGUGAAGCUGCUCAUCGAGAUGGAGCAGCGGCUGGAGCAGGGCCAGGCCAUCGACGACCUCAUGCCUGCCCAGAAAUGAAGCCCGGCCCACACCCGACACCAGCCCUGCUGUGGAAUUCUCGGGUGCCAA; value = 0.704
Sequence = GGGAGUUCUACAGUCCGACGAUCCAUUCAGCUUCAGUCUUUACAUACCAUGAAUAAAACAUUAAAACAUCAUAUGGAGAAGUUUACAUGGUGAUUGUUCACCUGCAGUACUGUGGAGUUUUAACAUUUUGUCCUGGAAUUCUCGGGUGCCAA; value = 0.465
Sequence = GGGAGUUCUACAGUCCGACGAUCCAGUGCAUUGUCCCGUGGAGGUGUGACACGGGAGACACACGUGUGGAUCAUGUGAUCAUUGUGAACACCUCGUGAGCUUUAAAAUAAAGUCCACCCUGUGGUGUCAUUUCUGGAAUUCUCGGGUGCCAA; value = 0.49
Sequence = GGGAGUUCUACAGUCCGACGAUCCUUGGUGUGUAUACAUUAGGGGAGGAUAAUCUGAUGCUAACUUUUUUUUUCUCUUUGGUUCUUGAAUAGCUUAGUUUCUUUAAUAACAAGUCAAACUUUAUUACAACAAUUGGAAUUCUCGGGUGCCAA; value = 0.365
Sequence = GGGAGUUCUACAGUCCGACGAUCGGUGGAGUCUGUGAGGCUAGAAUAUCUCUCAGCAAGAGCAGCAUACCUCCAUGUUGUGAAGGCAUCUGUUCAGUGAAGCACUACGAAAAUUUGAAACCAAGGGACAAGACUGGAAUUCUCGGGUGCCAA; value = 0.895
Sequence = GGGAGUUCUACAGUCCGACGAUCAUCUUUCCAACCAGCAUCCCAGACCUCGGACUCUUGAAGGGAAAAGAGUCUAACUCCCUCCUCCCUAGGGAUUCCUACCCCACAAAGGUCUCAUGGACCAUAGAACUCACUGGAAUUCUCGGGUGCCAA; value = 1.5
Sequence = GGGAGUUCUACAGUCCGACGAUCAAAAAUGGAGCAACGUGAGUGACCGCCCAAGGUCACAGGCACAGAACCUUUCCCCUGCUAUCUCCCUUCCUGCUUCGAAGGACUCAUUCUUUCCUCCCACUUCCACCCCAUGGAAUUCUCGGGUGCCAA; value = 0.432
Sequence = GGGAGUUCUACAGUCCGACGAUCUAUUUUACACGCAGUUCGCCAAAUGGGAUUGCUCUGUAUAGUCAAAUUGGUGAUGGACAGAUGGACAGAAUGCAGAGGUACAUAGAUGAGCUGAGGCUGAUCCAGCUCCCUGGAAUUCUCGGGUGCCAA; value = 1.09
Sequence = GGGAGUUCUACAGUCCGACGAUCCAGCCCAAAAGACGGGAAGAGGAGGCCUUUGGCUGCUUGUGUUGACAGCUUAAAGGGGUCUACACCCUCAACUUGCUUAAGUGCCCUCUGCUGAUAGCCAGGAAGGAGGGUGGAAUUCUCGGGUGCCAA; value = 0.487
Sequence = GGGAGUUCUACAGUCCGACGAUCAAGCCCAUGUCAGGGCGAUCCUGGUUCAAAUGUGCCAUUUCCCGGGUUGAUGCUGCCACACUUUGUAGAGAGUUUAGCAACACAGUGUGCUUAGUCAGCGUAGGAAUCCUUGGAAUUCUCGGGUGCCAA; value = 0.274

Study 3
Target: Centromere-binding protein 1, full length, His-tagged (CBF1, Saccharomyces cerevisiae, UniProt P17106, residues 1-351)
Chain of UniProt P17106 (whole entry, looked up): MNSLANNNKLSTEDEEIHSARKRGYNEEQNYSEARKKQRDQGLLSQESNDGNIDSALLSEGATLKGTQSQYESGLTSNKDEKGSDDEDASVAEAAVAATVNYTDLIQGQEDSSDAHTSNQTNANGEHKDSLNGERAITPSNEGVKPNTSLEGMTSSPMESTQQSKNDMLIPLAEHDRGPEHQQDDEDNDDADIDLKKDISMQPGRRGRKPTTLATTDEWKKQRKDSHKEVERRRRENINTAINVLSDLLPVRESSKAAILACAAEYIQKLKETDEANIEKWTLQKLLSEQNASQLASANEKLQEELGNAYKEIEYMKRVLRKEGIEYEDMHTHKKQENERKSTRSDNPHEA
Technique: competition protein-binding microarray
Molecule type: double-stranded DNA, one strand shown
Matrix: in vitro
Concentration: 2 µM
Notes: whole 60-bp probe, lowest competitor level
Added: Pho4 competitor, 0.05 µM
Direction: higher = stronger binding
Quantity: fluorescence intensity
Sequence = GGCCTTGGTAATGGGAACGTGGCCGAAAACGGCGAGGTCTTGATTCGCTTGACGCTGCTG; value = 64.5 a.u.
Sequence = CGGGGTTAAGTTTGTCACCAAACTTGCTTGCAGCAGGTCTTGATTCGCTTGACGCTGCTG; value = 72.6 a.u.
Sequence = TGCGCAACAACTTGCCCAGTGGGTGTATGTCTAGAAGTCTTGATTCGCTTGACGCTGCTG; value = 53.9 a.u.
Sequence = AAATTACTAAGTTAACACGTGTTTTACCCCGTATGAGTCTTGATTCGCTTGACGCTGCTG; value = 1630 a.u.
Sequence = AAGTTGCTTCTTTGCCACGTGTTCCATTGAAGATTGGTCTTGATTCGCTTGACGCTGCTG; value = 1890 a.u.
Sequence = CATCTTCTTACATCGCACGTGATGGTAAACTAGTAAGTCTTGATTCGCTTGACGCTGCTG; value = 4960 a.u.
Sequence = TACCAGGTCTTTTAGCACGCTGAACATAATACACAGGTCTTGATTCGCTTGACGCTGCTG; value = 131 a.u.
Sequence = CACTTTTTAAACCATCACGGCCTCTGACGTAATCGGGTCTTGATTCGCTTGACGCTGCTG; value = 81.8 a.u.
Sequence = TCTATAATAACCTCCCATGTGAAAATACCAACCTCTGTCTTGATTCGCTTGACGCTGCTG; value = 117 a.u.
Sequence = CCAAAAGCGTCATTCCACGTGGACCCGCTTAGTTTAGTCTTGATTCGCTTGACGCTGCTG; value = 450 a.u.
Sequence = CATTTGAAGGTTCGGCACGTGCTTTACCCCAAAGGTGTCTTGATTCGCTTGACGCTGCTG; value = 2110 a.u.
Sequence = TCGGCTATCTGTGAGTACGTGCGGACTTCCAACGTCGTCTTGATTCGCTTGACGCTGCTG; value = 72 a.u.
Sequence = CAAACCACTTTGGTTACCGTGACGAACTGCGAATCTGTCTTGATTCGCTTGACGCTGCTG; value = 91.3 a.u.
Sequence = GTCTTGTCTCATTGAATCGTGGGTGTCCCCACTTCAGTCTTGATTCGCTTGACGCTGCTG; value = 80.1 a.u.
Sequence = CATACCCAACCTTGGAAGGTGGGTGAAGATATTTGTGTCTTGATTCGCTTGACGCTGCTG; value = 75.6 a.u.
Sequence = ACTTGGCCCTATTCATCCGTGACGGGATCATATCTTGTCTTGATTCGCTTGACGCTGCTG; value = 78.6 a.u.
Sequence = AAATTACTAAGTTGGATTGTGGGTGACGCCGTATGAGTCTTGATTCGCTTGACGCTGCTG; value = 60.3 a.u.
Sequence = CGGGGTTAAGTTTGTGCTGTGGGTGGCTTGCAGCAGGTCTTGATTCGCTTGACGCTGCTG; value = 56.7 a.u.
Sequence = TCAGTATAGCAGCGACGCGTGGGTATCAGGAAGAATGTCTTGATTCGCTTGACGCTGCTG; value = 75.5 a.u.
Sequence = AAAGCGGTAATTTGAATCGTGGGTGCAGATATCTATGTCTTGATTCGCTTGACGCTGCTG; value = 85.5 a.u.
Sequence = TGCGCAACAACTTGTCGTGTGGGTGTATGTCTAGAAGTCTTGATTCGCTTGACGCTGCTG; value = 75.8 a.u.
Sequence = AGCAGATGGTAATCGCACGTTGAAAATGCTGAATATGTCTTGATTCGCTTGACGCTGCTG; value = 106 a.u.

Study 4
Target: Histone acetyltransferase KAT6A, both winged helices, GST fusion (KAT6A, Homo sapiens, UniProt Q92794, residues 1-181)
Technique: protein binding microarray
Molecule type: double-stranded DNA, one strand shown
Matrix: in vitro
Concentration: not given
Notes: 8-mer, flanks averaged, mean of 2 arrays, mostly near background
Baseline: not given
Direction: higher = stronger binding
Quantity: E-score
Construct (chain): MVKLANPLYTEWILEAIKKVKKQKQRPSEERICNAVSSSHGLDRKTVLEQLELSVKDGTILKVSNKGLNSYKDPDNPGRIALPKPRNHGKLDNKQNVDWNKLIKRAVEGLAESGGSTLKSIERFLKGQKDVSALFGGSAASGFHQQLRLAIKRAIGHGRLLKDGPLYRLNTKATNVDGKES
Sequence = CGATCGTA; value = 0.0564
Sequence = ACACAGGC; value = -0.152
Sequence = ACCCTTTG; value = -0.119
Sequence = GCGTTTAA; value = 0.15
Sequence = CAACTTCA; value = -0.0767
Sequence = CTGTAACA; value = -0.141
Sequence = ACCTGCTG; value = -0.147
Sequence = CAAACGGA; value = 0.177
Sequence = CACTTTTA; value = -0.118
Sequence = ATAGACGA; value = -0.0539
Sequence = AGCCACCT; value = -0.281
Sequence = AAACCTTT; value = -0.033
Sequence = ATTCCGAG; value = 0.00217
Sequence = GAACTGGA; value = 0.0387
Sequence = CTGCCAGA; value = -0.196
Sequence = ATAGTCGC; value = 0.0998
Sequence = AAAAGCCA; value = 0.0184
Sequence = TAGAATGA; value = -0.131
Sequence = ATTAGATC; value = -0.0325
Sequence = AGAGAGTA; value = -0.121
Sequence = CTATCACA; value = -0.0865
Sequence = CCCCGGCC; value = 0.205
Sequence = AACAAACG; value = 0.0593
Sequence = ACGATTAG; value = -0.079
Sequence = GGGGCGTA; value = -0.00238
